Results of several laboratories.
Compare with care: the assays were run in different laboratories. “And” joins repeats or separate records; there may be more than shown. ± marks the error that the study gave. ≈ marks a conversion by molar mass, not a printed value.

| Structure (SMILES) | target or system | assay | system | setting | scale | endpoint | value |
| --- | --- | --- | --- | --- | --- | --- | --- |
| O=C(Nc1cnccc1-c1ccc([18F])nc1)c1ccnc(NC(=O)C2CC2)c1 | – | – | FVB/NJ mice, both sexes, liver | intravenous, 5 min, median, P-gp inhibitor pretreatment, together with: tariquidar 15 mg/kg iv | – | SUV | 5.58 |
| COc1ccc(C(=O)c2c(C(=O)NCCCN(C)C)oc3ccc(Cl)cc3c2=O)cc1OC | – | – | male C57BL/6 mice, brain | intravenous, 1 mg/kg | – | AUC extrapolated fraction | 10% |
| Cc1noc(C)c1Cn1cc(N2C(=O)CN(Cc3cccc(OS(=O)(=O)O)c3)C2=O)cn1 | – | – | Sprague-Dawley rat, male | oral, 30 mg/kg of parent drug, 24 h | – | plasma concentration | 14 ng/mL |
| OC1(C(F)(F)F)CCN(c2nc(Nc3ccnc(C(F)(F)F)c3)nc(-c3cccc(C(F)(F)F)n3)n2)C1 (stereo not drawn) | – | – | monkey, blood | oral, 3 mg/kg | – | MRT(0-inf) | 31.5 ± 3.92 h |
| O=C1CCC(N2Cc3cc(C(=O)O)c(F)cc3C2=O)C(=O)N1 (stereo not drawn) | – | – | male cynomolgus monkey, plasma | oral, 0.3 mg/kg of parent drug | – | half-life | 4.9 ± 2.2 h |
| COc1cccc(OC)c1-c1cc(C(=O)NC2(C(=O)O)C3CC4CC(C3)CC2C4)nn1-c1ccc(C(=O)N(C)CCOCCOCCN(C)C(=O)[C@H](CCCCNC(=O)[C@H](CC(C)C)NC(=O)C2OC2C(=O)O)NC(=O)CN2CCN(CC(=O)[O-])CCN(CC(=O)[O-])CCN(CC(=O)[O-])CC2)cc1C(C)C.[177Lu+3] (mixture of isomers) | – | – | mouse HT-29 xenograft | 24 h, biodistribution | relative to: tumour over large intestine | tumour-to-large intestine ratio | 11.7 |
| O=C(NNCc1ccccc1)C1(C(F)(F)F)CCC1 | – | – | PBS | pH 7.4, 25 °C, 2% DMSO | – | solubility | 375 µM (≈ 102 µg/mL) |
| Cc1nn(-c2nc3c(F)cc(F)cc3s2)c(O)c1C(c1ccc(C(F)(F)F)cc1)c1c(C)nn(-c2nc3c(F)cc(F)cc3s2)c1O | – | – | ICR mouse, plasma | oral, 50 mg/kg | – | MRT(0-last) | 4.05 h and 6.31 h and 4.04 h |
| CC[C@H](C)[C@@H]1NC(=O)[C@H](Cc2ccc(O)cc2)NC(=O)CCCSC[C@@H](C(=O)N(CC(=O)N[C@@H](CC(C)C)C(=O)NCC(N)=O)Cc2ccc(F)cc2)NC(=O)[C@H](CC(N)=O)NC(=O)[C@H](CCC(N)=O)NC1=O | – | – | human | intranasal, 15 µg single dose | – | subjects with any TEAE | 33% |
| C=C(NC(=O)c1csc(-c2nc3c(cc2O)-c2nc(cs2)C(=O)NC(C(C)O)C(=O)NC(=C(C)OC)c2nc(cs2)C(=O)NC2c4nc(cs4)C(=O)NC(COC(=O)c4c5c6c(cccc6n4O)COC(=O)C(OC4CC(C)(O)C(N(C)C)C(C)O4)C2OC5)c2nc-3cs2)n1)C(N)=O (stereo not drawn) | – | – | cynomolgus monkey, female, plasma | intravenous infusion, 1.5 mg/kg twice daily, 0 to 30 h | – | half-life | 5.34 h |
| CC1Cc2ccccc2N1C(=O)CN1CCN(Cc2ccccc2)CC1 (stereo not drawn) | – | – | female NMRI mice, whole blood | intraperitoneal, 10 mg/kg free base, 60 min | – | concentration | 86 ng/mL and 81 ng/mL |
| CC[C@H](C)[C@H](NC(=O)[C@H](CCCCN)NC(C)=O)C(=O)N[C@@H](C)C(=O)N[C@@H](C)C(=O)N[C@@H](CC(C)C)C(=O)N[C@@H](CCCCN)C(=O)N[C@@H](CCC(=O)O)C(=O)N[C@@H](CCCCN)C(=O)N[C@H](C(=O)N[C@H]1CSCc2cccc(c2)CSC[C@@H](C(=O)N[C@@H](CCCCN)C(=O)N[C@H](C(=O)N[C@@H](C)C(=O)N[C@@H](C)C(=O)N[C@@H](CC(C)C)C(=O)N[C@@H](CCCCN)C(=O)N[C@@H](CCC(=O)O)C(=O)NCC(=O)N[C@@H](Cc2c[nH]c3ccccc23)C(N)=O)[C@@H](C)CC)NC(=O)[C@H](CCCCN)NC(=O)[C@H](CC(C)C)NC(=O)[C@H](C)NC1=O)[C@@H](C)CC | – | circular dichroism at 222 nm | PBS | pH 7.4, 20 °C, single peptide 50 µM total | – | helicity | 45% |
| C/C(N)=N/C(=N\S(=O)(=O)c1ccc(C(F)(F)F)cc1)N1C[C@H](c2ccccc2)C(c2ccc(Cl)cc2)=N1 | – | – | C57BL/6 mouse, lung | intravenous, 10 mg/kg | – | Cmax | 272000 ng/mL |
| COC1CN([C@H]2CC[C@H]([C@@]3(C)Oc4c(Cl)cc(C(=O)NCc5c(SC)cc(C)[nH]c5=O)c(C)c4O3)CC2)C1 | – | RNA-seq, measured: SH3D19 | human, whole blood | dose not given, 24 h | relative to: pretreatment baseline | log2 fold change | 1.38 |
| CCCCN1C(=O)c2cccc3c(NCCCCCCCCN4CCOCC4)ccc(c23)C1=O | – | – | dioxane | – | – | fluorescence lifetime | 10.5 ns |
| Cc1cc2c(cc1O)C=C1C=CC(=O)C(C)(C)[C@H]1CC2 | – | – | male Sprague-Dawley rat, plasma | oral, 20 mg/kg | – | AUC(0-t) | 25.3 ng·h/mL |
| CCCCC/C=C\CCCO[Si](CCCN(C)C)(OCCC/C=C\CCCCC)OCCC/C=C\CCCCC | – | – | – | pH 5.5, formulated | – | zeta potential | 2.72 mV |
| CSCC[C@H](NC(=O)[C@H](CC(=O)O)NC(C)=O)C(=O)N[C@@H](Cc1ccc(O)cc1)C(=O)N[C@@H](Cc1ccc(O)cc1)C(=O)N[C@@H](CCCNC(=N)N)C(=O)N[C@@H](Cc1ccc(O)cc1)C(=O)N[C@@H](CC(N)=O)C(=O)NCC(=O)N[C@@H](CCCCN)C(=O)N[C@H](C(=O)N[C@@H](Cc1c[nH]c2ccccc12)C(=O)N[C@@H](Cc1c[nH]c2ccccc12)C(=O)N[C@@H](CCCNC(=N)N)C(=O)O)C(C)C | – | circular dichroism | free peptide in solution | concentration not given, 25 °C, no insulin present | – | α-helix content | 6.71% |
| CC(=O)N([O-])CCCCCNC(=O)CCC(=O)N([O-])CCCCCNC(=O)CCC(=O)N([O-])CCCCCN.[89Zr+4] | – | radio-TLC | aqueous buffer | 3 d, pH 7, 37 °C, 89Zr-labelled complex, together with: DTPA 1000-fold excess | – | intact complex | 83 ± 3.1% |
| C=CC(=O)Nc1cc(Nc2nccc(-c3c[nH]c4ccccc34)n2)c(OC)cc1N(C)CCN(C)C | – | storage stability | human dried blood spot | 10 d, -80 °C, LLOQ level | – | recovery | 82.9% |
| CSCC[C@H](N)C(=O)N[C@@H](CO)C(=O)N[C@H](C(=O)N[C@@H](C)C(=O)NCC(=O)N[C@@H](CC(C)C)C(=O)N[C@@H](CCCCN)C(=O)N[C@@H](CCCCN)C(=O)N[C@@H](CCC(N)=O)C(=O)N[C@@H](Cc1c[nH]c2ccccc12)C(=O)N[C@@H](Cc1ccc(O)cc1)C(=O)N[C@@H](CCCCN)C(=O)N[C@@H](C)C(=O)N[C@@H](CO)C(=O)N[C@@H](CCC(N)=O)C(=O)N[C@@H](CC(C)C)C(=O)N[C@H](C(=O)N[C@@H](CO)C(=O)N[C@@H](CCC(=O)O)C(=O)N[C@@H](CCCCN)C(=O)N[C@H](C(=O)NCC(=O)NCC(=O)N[C@@H](C)C(N)=O)C(C)C)C(C)C)C(C)C | – | circular dichroism | 100% DOPS liposomes | 1 mM lipid | – | helical content | 55% |
| COc1cccc(OC)c1-c1cc(C(=O)NC2(C(=O)O)C3CC4CC(C3)CC2C4)nn1-c1ccc(C(=O)N(C)CCCN(C)CCCN(C)C(=O)[C@H](CCCCNC(=O)[C@H](CC(C)C)NC(=O)C2OC2C(=O)O)NC(=O)CN2CCN(CC(=O)[O-])CCN(CC(=O)[O-])CCN(CC(=O)[O-])CC2)cc1C(C)C.[177Lu+3] (mixture of isomers) | – | – | mouse HT-29 xenograft | 72 h, biodistribution | relative to: tumour over large intestine | tumour-to-large intestine ratio | 46.5 |
| C=CC(=O)Nc1cc(Nc2nccc(-c3cn(C)c4ccccc34)n2)c(OC)cc1N(C)CCNC | – | storage stability | human plasma | 72 h, on ice, LLOQ level | – | recovery | 73.3% |
| CCCCCCCCCCCCOC(=O)c1ccc(O)cc1 | – | – | empty Transwells without cells | 5 µM, 60 min, basolateral to apical | – | mass balance | 89% |
| O=S(=O)(N[C@H]1CCO[C@@H](C2c3ccccc3CCc3ccccc32)C1)c1ccc(OC(F)(F)F)cc1 | – | – | mouse | oral, 30 mg/kg, 2 h | relative to: brain over plasma | tissue/plasma ratio | 1.3 |
| Cc1ncsc1-c1ccc(C(C)NC(=O)C2CC(O)CN2C(=O)C(NC(=O)CCCCCCCCCCN2CCCC(Nc3ncc(Cl)c(Nc4ccccc4S(=O)(=O)C(C)C)n3)C2)C(C)(C)C)cc1 (stereo not drawn) | 22Rv1 | RNA-seq, measured: ZSCAN29 mRNA | – | concentration not given | relative to: DMSO | log2 fold change | -1.44 |
| CC(C)(O)c1ncc([S@](N)(=O)=NC(=O)Nc2c3c(cc4c2CCC4)CCC3)s1 | – | measured: nervous system disorders | healthy human volunteers | oral, 200 mg once daily, 14 days, spray-dried dispersion | – | subjects with adverse events | 57% |

Repeated from above:
| Structure (SMILES) | target or system | assay | system | setting | scale | endpoint | value |
| --- | --- | --- | --- | --- | --- | --- | --- |
| O=S(=O)(N[C@H]1CCO[C@@H](C2c3ccccc3CCc3ccccc32)C1)c1ccc(OC(F)(F)F)cc1 | – | – | mouse | oral, 30 mg/kg, 2 h | relative to: brain over plasma | tissue/plasma ratio | 1.3 |
| CSCC[C@H](NC(=O)[C@H](CC(=O)O)NC(C)=O)C(=O)N[C@@H](Cc1ccc(O)cc1)C(=O)N[C@@H](Cc1ccc(O)cc1)C(=O)N[C@@H](CCCNC(=N)N)C(=O)N[C@@H](Cc1ccc(O)cc1)C(=O)N[C@@H](CC(N)=O)C(=O)NCC(=O)N[C@@H](CCCCN)C(=O)N[C@H](C(=O)N[C@@H](Cc1c[nH]c2ccccc12)C(=O)N[C@@H](Cc1c[nH]c2ccccc12)C(=O)N[C@@H](CCCNC(=N)N)C(=O)O)C(C)C | – | circular dichroism | free peptide in solution | concentration not given, 25 °C, no insulin present | – | α-helix content | 6.71% |
| O=C1CCC(N2Cc3cc(C(=O)O)c(F)cc3C2=O)C(=O)N1 (stereo not drawn) | – | – | male cynomolgus monkey, plasma | oral, 0.3 mg/kg of parent drug | – | half-life | 4.9 ± 2.2 h |
